Results of several laboratories.
Each numbered part is a random draw from the data of one study; scales do not carry over between parts. Changes are numbered by the printed parent chain.

Set 1
Target: Interferon regulatory factor 7, full length, phosphomimetic (IRF7, Homo sapiens, UniProt Q92985, residues 1-503, S101K/S471D/S472D/S475D/S476D/S477D/S483D/S484D/S487D)
Method: protein-binding microarray
Molecule type: double-stranded DNA, one strand shown
Sample: in vitro
Tested at: 250 nM
Setting: 60-bp whole probe
With: salmon DNA 0.4 mg/ml
Reference: random background probes
Direction: higher = stronger binding
All sequences stand within: GCCTAGCAC … GTCTTGATTCGCTTGACGCTGCTG
Residues (chain): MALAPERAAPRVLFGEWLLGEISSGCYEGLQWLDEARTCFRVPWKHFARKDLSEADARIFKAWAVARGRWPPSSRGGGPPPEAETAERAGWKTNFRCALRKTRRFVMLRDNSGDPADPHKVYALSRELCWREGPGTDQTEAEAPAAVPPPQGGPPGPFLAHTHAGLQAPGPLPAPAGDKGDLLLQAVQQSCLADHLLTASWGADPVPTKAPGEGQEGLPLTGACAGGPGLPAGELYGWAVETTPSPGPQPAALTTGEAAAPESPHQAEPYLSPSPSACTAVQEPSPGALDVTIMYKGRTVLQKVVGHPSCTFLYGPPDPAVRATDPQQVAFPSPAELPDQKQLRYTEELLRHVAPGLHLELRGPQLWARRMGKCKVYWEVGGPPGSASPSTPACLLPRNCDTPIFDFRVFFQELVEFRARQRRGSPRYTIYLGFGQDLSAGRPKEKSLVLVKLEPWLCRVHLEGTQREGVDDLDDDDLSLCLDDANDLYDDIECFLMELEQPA
Oligonucleotide | log fluorescence
GACGGACTGCTTCTCCTGAGGTGCTAG | -0.269 z-score
GACGATATCGGGTTTCCAGACGTGCTA | 0.557 z-score
TCAGAATTACCTCTGGAACTGTGCTAG | -0.456 z-score
TTAGGTATCGGTTTCGGATAGTGCTAG | 8.77 z-score
TTAGGTTTCAACTTTCGGTTAGTGCTA | 3.21 z-score
CTAGAACTGAGACTGGATTAGTGCTAG | 0.191 z-score
GCCGGTTTCGGGTTTCGGGACGTGCTA | 11.7 z-score
CACGAACTGGGGACTGGAGACGTGCTA | -0.324 z-score
TTAGAAATCAGACTGGATTAGTGCTAG | -0.192 z-score
GACGGATTGGGTCTCGGGACGTGCTAG | -0.301 z-score
GTCGGACTGGGGACTGGGGACGTGCTA | -0.29 z-score
TCACTTCTAGACTTCTCACTGTGCTAG | 0.826 z-score
TTAGATCTCAGTTTCGACTAGTGCTAG | 3.61 z-score
TTAGGACTGGGACTGCGTTAGTGCTAG | -0.724 z-score
GACGGACTGGGGTAGCGGGACGTGCTA | -0.795 z-score
CATCATTGCCTGTTTTTCCCCGTGCTA | 0.129 z-score
TTAGAACTGAGTATCGACTAGTGCTAG | -0.0107 z-score
GACGGTTTCGGACTGGGGAGGTGCTAG | 3.74 z-score

Set 2
Target: Myc proto-oncogene protein, bHLH-zipper, MAX partner unstated (MYC, Homo sapiens, UniProt P01106, residues 368-449)
UniProt P01106, sequence (368-449, looked up): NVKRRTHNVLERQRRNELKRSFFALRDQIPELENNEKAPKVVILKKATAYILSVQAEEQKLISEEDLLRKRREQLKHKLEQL
Method: protein-binding microarray
Molecule type: double-stranded DNA, one strand shown
Sample: in vitro
Tested at: not given
Setting: k-mer, scored over probes, only values ≥0.25
Direction: higher = stronger binding
Oligonucleotide | E-score
CGTGGCTA | 0.446
ACACGCGA | 0.387
CCACGCAA | 0.314
CACGCATG | 0.451
CGGCACGA | 0.335
CCCACGAG | 0.413
CGTGTCTC | 0.374
CGGTAGCA | 0.308
CGTGTGCA | 0.409
AACGCGGT | 0.276
TCCATGCA | 0.335
ATGAGGTG | 0.307
AACACGCC | 0.376
GCGCGCAC | 0.303
CCCGCGCG | 0.289
AAACGTGG | 0.438
CGTGGAGA | 0.362
CATGGTCG | 0.322
ATGCGGTC | 0.318
CGCGTGAG | 0.357
AACACACG | 0.344
ACCACCCC | 0.342

Set 3
Target: Hepatocyte nuclear factor 3-alpha (Foxa1, Mus musculus, UniProt P35582, residues 1-468, full length assumed)
Method: EMSA with sequencing
Molecule type: double-stranded DNA, one strand shown
Sample: in vitro
Tested at: 10 and 20 nM
Setting: whole designed probe, mean of two concentrations, ends assumed
Reference: negative control set to 0
Direction: higher = stronger binding
Residues (chain): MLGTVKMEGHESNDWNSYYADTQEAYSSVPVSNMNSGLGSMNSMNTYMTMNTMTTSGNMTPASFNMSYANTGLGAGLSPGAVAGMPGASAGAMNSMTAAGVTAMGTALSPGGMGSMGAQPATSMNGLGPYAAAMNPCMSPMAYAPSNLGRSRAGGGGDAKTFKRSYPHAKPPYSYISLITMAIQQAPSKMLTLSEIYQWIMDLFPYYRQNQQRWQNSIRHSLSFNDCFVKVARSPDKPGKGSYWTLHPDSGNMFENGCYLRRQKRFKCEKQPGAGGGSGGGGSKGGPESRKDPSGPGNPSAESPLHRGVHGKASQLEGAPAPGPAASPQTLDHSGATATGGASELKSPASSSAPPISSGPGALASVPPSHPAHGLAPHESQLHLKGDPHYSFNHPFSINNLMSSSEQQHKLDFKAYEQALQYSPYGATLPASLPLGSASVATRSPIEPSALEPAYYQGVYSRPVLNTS
Oligonucleotide | normalised bound fraction
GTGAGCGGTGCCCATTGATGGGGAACATCTTCCCCCTCTTCCTTGCCCCACCAGCTCACCTTCCCGGGTTATTTGCAGATAGGAAAATAAATAAAGCCGGCATTCGTTAACCCTCTTCAGATGAATCATGCCAGAGCAAACAGATCTAACATGGTCCTTTGGCGACGCCAGGCTCCGGGAGAGCAAAGCACCGTGTCAGGGCCATGATCCGGGGTGGCCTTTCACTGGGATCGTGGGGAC | 0.4 ratio
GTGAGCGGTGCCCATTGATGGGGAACCAAGGCTGCTCACCCACTTCTTTAACCATTCTTCAAAAAAGTGAGCTGTTGTTATTGAACTTTTTATTATTACTTAATTACAAGAAAAAACAAAGTAAACAACCAAAAAAATTATAGTGTTGAGAAAATGCCAAGGCTGTTCACCCACTTCTTTAACCATTCTTCAAATTTACCATATATATATTTTTTTGACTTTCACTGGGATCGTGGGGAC | 0.356 ratio
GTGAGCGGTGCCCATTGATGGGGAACTGTGTAAGATTAGCTATCTAAACATGAATAGCATTCTGAAGTGAAGGGAAAAAATTGACTTAAAATTTTAAAAGCATTAATATCATTTCAAAGTAAACAACAGGTCCTTTTAAAACGATTAGAGGATTATTTGTGCATTATTTTATGGGTCAAAATTTAAGCTTTTAAAAGAATAAAGTGATTTTTAAAAGAATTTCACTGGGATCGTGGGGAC | 0.432 ratio
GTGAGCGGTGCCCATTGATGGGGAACTCATAAGCATAAGGGTGAGTGACACTTTGCCCTCACCATCAAAACTGTTCAATTTGTGAAACGTGAATGCCCCATTCACATTGCTCATTTCATGTTTACTCTGGAGCATGTGTTCACTGAGTGAGCAGTATCCTTTTCAATTTATTTTTGGTGAAACACATAGTAGAATTAGTATAAATTAAATGCAAGTATATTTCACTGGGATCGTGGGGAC | 0.284 ratio
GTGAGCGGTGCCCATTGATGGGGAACATCTTCCCCCTCTTCCTTGCCCCACCAGCTCACCTTCCCGGGTTATTTGCAGATAGGAAAATAAATAAAGCCGGCATTCGTTAACGCAGTTCACGCGCATACTGCTGTTTGCTCTGGATCTAACATGGTCCTTTGGCGACGCCAGGCTCCGGGAGAGCAAAGCACCGTGTCAGGGCCATGATCCGGGCTCGCCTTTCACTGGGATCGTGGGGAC | 0.354 ratio
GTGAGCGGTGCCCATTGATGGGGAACAGCAGAACCAATATAATCATGATTGCATACACCCATACGTTAATATGTTGGTAAATTGGATTTGTTATATAAAGAAATTGCAATGAAGTGCTAAGTAATCTAATATCAGATTACATTATAATCTCTATGGCATGTTATATTTTAATTTCTATCTAGAAATGCATTGTGAAACCTAATAAAAAATTTGAAGCTTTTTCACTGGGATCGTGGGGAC | 0.0255 ratio
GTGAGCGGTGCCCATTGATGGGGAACTGATGATACGTTATAGCATTTCTCTGCTCTGTAAGAGAGGCACCAGGGTCGTGTGCTGGGTCTGGGGTTTGTCCATTCCACAACGGGTGCTGCTGTTGACTCTGGTGTCGGCCGCTGGTGAGCTGGCTGTAGCTGGTCACCTCTGGGTGGTTTCTGGGGCGGTCGCAGGCTGACTAACACACCAAAGGTCAGCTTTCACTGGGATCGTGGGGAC | -0.00479 ratio
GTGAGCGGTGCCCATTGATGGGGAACTCCCTTTTATAGGAATTATGCAGAAATTATTCCATTTCTTTGAACATTTGGGAGCATATGCAGAGTAAAGTATAAATGCTTGCAGAATGCCTTAAATTGCATATTGCAGTTTTTCAGAAATTATCTCCCTTCAGCACACCAAAGGCTTTGATTTCTACTAATTCTAATAATATTCAGGGTGAAGGAGAAACTGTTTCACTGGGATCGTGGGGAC | -0.0406 ratio

Set 4
Target: CCND3, cyclin fold, Cln2 fusion (human)
Method: yeast growth competition, sequencing
Sample: yeast
Setting: weak parent motif
Reference: not given
Direction: higher = stronger binding
Starting sequence: PKN2 docking peptide (human); VSAVRKLDFSDTM; partner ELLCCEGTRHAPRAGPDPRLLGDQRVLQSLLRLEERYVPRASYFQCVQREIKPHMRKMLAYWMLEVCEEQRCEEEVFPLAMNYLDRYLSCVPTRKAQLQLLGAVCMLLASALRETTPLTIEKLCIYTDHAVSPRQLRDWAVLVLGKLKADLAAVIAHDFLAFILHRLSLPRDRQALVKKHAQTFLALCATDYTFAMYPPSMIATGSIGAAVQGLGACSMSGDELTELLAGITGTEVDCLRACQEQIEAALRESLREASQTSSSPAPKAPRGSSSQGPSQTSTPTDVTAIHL
Substitution | normalised enrichment score
VSARRKLDFSDTM [V4R] | 1.51
VSAVRKLDFSDIM [T12I] | 0.546
VSAVRKLDFSDNM [T12N] | 1.41
VSAVRALDFSDTM [K6A] | 0.729
VSAVDKLDFSDTM [R5D] | -0.0624
VSAVRKKDFSDTM [L7K] | 0.138
VSIVRKLDFSDTM [A3I] | -0.0721
VSAVRKTDFSDTM [L7T] | 0.36
VSAVRKLDFKDTM [S10K] | 0.363
VSDVRKLDFSDTM [A3D] | -0.15
VSGVRKLDFSDTM [A3G] | 0.146
VSRVRKLDFSDTM [A3R] | 0.366
VSAVRKLDFNDTM [S10N] | 0.784
VSAVGKLDFSDTM [R5G] | -0.417

Set 5
Target: ABI1, truncated, D143A, DHFR fusion (Arabidopsis thaliana)
Method: DHFR PCA, deep sequencing
Sample: yeast
Setting: methotrexate growth selection, single substitutions
With: (+)-ABA 200 µM
Reference: wild-type fitted maximum
Direction: higher = stronger binding
Starting sequence: PYL1, truncated, DHFR fusion (Arabidopsis thaliana); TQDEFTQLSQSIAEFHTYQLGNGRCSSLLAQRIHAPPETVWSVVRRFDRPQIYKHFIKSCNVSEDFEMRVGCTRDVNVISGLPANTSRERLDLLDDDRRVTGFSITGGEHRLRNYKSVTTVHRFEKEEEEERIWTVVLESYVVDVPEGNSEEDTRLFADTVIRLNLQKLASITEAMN; partner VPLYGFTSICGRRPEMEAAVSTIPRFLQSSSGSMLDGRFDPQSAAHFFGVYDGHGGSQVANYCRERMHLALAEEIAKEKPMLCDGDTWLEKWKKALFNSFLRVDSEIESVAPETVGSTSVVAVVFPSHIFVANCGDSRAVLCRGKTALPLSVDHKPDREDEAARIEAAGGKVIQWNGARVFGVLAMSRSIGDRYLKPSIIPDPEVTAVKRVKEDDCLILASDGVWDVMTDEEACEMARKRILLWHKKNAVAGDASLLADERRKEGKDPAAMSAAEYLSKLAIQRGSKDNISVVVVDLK
Substitution | relative binding score [%]
V136P | -15.7
I52F | 101
V76Y | 90.3
H55S | 108
R155Q | 90.9
A175F | 92.4
V161Y | 63.6
R46H | 71.9
R32C | 89.4
T160Y | 89.3
T6H | 102

Some of these lines once more (set 2):
Oligonucleotide | E-score
GCGCGCAC | 0.303
CCCGCGCG | 0.289
AAACGTGG | 0.438
CGTGGAGA | 0.362
CATGGTCG | 0.322
ATGCGGTC | 0.318
CGCGTGAG | 0.357
AACACACG | 0.344
